Measurements from different studies.
Every numbered part comes from another study and shows a few of its results, in no order.

Block 1
Target: Prothrombin, mature alpha-thrombin (F2, Homo sapiens, UniProt P00734)
Technique: aptamer microarray, sandwich
Molecule type: DNA with 2'F-ANA
Medium: in vitro
Tested at: 200 nM
Setting: whole 15-mer aptamer, many near background
Added: Cy3 exosite-II aptamer, 400 nM
Direction: higher = stronger binding
Sequence: GGTTGGTGTGGTTGG
| Modification | mean fluorescence intensity [a.u.] |
| --- | --- |
| 2'F-ANA at 3 5 8 11 12 13 14 | 71.6 |
| 2'F-ANA at 1 3 6 8 9 10 11 15 | 75.7 |
| 2'F-ANA at 1 7 8 12 13 14 15 | 92.8 |
| 2'F-ANA at 1 2 3 5 9 11 12 13 14 | 46.7 |
| 2'F-ANA at 1 4 7 9 10 11 12 13 | 54.1 |
| 2'F-ANA at 1 4 7 8 11 15 | 129 |
| 2'F-ANA at 1 2 6 7 8 11 15 | 145 |
| 2'F-ANA at 1 2 3 5 8 9 10 12 13 | 50.6 |
| 2'F-ANA at 3 5 6 7 13 14 | 49.7 |
| 2'F-ANA at 5 8 9 11 12 13 14 15 | 58.8 |
| 2'F-ANA at 1 2 3 6 9 12 13 15 | 330 |
| 2'F-ANA at 1 5 7 9 10 11 13 | 105 |
| 2'F-ANA at 1 2 3 4 5 9 12 13 | 73.5 |
| 2'F-ANA at 1 2 3 6 8 10 15 | 65.7 |
| 2'F-ANA at 1 2 4 5 6 10 11 12 14 15 | 283 |
| 2'F-ANA at 1 4 5 8 11 12 14 15 | 47.5 |
| 2'F-ANA at 1 5 6 7 8 10 13 14 | 64.7 |
| 2'F-ANA at 1 2 3 4 6 7 11 12 14 | 68.1 |
| 2'F-ANA at 1 2 4 5 6 7 10 11 13 14 15 | 55.1 |

Block 2
Target: Ras GTPase-activating protein-binding protein 1, full length (G3BP1, Homo sapiens, UniProt Q13283)
UniProt Q13283, sequence (whole entry, looked up): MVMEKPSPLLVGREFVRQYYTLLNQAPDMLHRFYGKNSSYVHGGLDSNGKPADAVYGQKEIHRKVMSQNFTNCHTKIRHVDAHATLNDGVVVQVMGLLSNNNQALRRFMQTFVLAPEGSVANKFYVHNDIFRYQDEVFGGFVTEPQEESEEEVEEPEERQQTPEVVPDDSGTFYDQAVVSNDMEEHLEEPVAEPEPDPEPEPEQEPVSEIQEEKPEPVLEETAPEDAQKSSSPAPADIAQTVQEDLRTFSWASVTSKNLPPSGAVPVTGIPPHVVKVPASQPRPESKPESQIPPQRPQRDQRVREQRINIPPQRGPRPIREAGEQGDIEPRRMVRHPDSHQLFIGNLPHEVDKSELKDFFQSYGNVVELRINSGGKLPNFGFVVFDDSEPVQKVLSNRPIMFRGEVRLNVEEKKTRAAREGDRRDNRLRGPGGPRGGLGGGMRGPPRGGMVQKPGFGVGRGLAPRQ
Technique: RNA Bind-n-Seq
Molecule type: RNA
Medium: in vitro
Tested at: 200 nM
Setting: whole 134-nt RNA, ends assumed
Added: 150 mM KCl
Relative to: input library
Direction: higher = stronger binding
Constant ends, left off below: GGGAGUUCUACAGUCCGACGAUC … UGGAAUUCUCGGGUGUCAAGG
| Sequence | log2 enrichment |
| --- | --- |
| CAAGUCCUGUGCUACACAUCGUAUGUACCGAAUCGGGAGGGAAAAAGGGUUUGGGAAAGUAUUAUGUUACGCCGUUCGGAUCUGCACUUC | 0.653 |
| CUGUGCUACACAUCGUAUGUACCGAAUCGGGGUUUUUGGGGUUUUUUUGGGGUUUUUGGGGAAAGUAUUAUGUUACGCCGUUCGGAUCUG | -0.328 |
| CCUCAAGUCCUGUGCUACACAUCGUAUGUACCGAAUCGGGCCGGCCGGCCGGAAAGUAUUAUGUUACGCCGUUCGGAUCUGCACUUCCAG | 0.256 |
| AGUCCUGUGCUACACAUCGUAUGUACCGAAUCGGGGUUUUGGGUUUUGGGUUUUGGGGAAAGUAUUAUGUUACGCCGUUCGGAUCUGCAC | 0.116 |
| UGGGAGGUGGAUUUUGUUUAUUUUUUUAGCUCAUUUCCAGGGGUGGGAAUUUUUUUUUAAUAUGUGUCAUGAAUAAAGUUGUCUUUGAAA | 0.756 |
| UAACUUUAGAGGAGGAUCUUAUGGAUAUGGCAGUGGACGUGGAUUUGGGGAUGGCUAUAAUGGGUAUGGAGGAGGACCUGGAGGUGGCAA | 0.316 |
| UCAAGUCCUGUGCUACACAUCGUAUGUACCGAAUCGGGAAGGGGAAGGAAGGGGAAAGUAUUAUGUUACGCCGUUCGGAUCUGCACUUCC | 0.862 |
| CACAGACAACACGGACCCACACAGACACAGAGGGAAGGGGUUGGGAUGGGGACAGGGUGCACAGCAGGGCGGGGUAGGACCCCAGCCCCU | 2.04 |
| GUCCUGUGCUACACAUCGUAUGUACCGAAUCGGGGUUUUUGGGGUGGGGAAAAAGGGGAAAGUAUUAUGUUACGCCGUUCGGAUCUGCAC | 0.457 |
| CUCAAGUCCUGUGCUACACAUCGUAUGUACCGAAUCGGUUGGGGUUGGGUUGGAAAGUAUUAUGUUACGCCGUUCGGAUCUGCACUUCCA | -0.133 |
| AAGUCCUGUGCUACACAUCGUAUGUACCGAAUCGGGUUUGGGAAAAAGGGUUUGGGAAAGUAUUAUGUUACGCCGUUCGGAUCUGCACUU | 0.397 |
| CACAGACAACACGCACCCACACAGACACAGAGGGAAGGGGUUGGGACGGGGACAGGGUGCACAGCAGGGCGGGGUAGGACCCCAGCCCCU | 1.84 |
| CAAGUCCUGUGCUACACAUCGUAUGUACCGAAUCGGGGUUUGGGGAGGGGAGGGGAAAGUAUUAUGUUACGCCGUUCGGAUCUGCACUUC | 1.26 |
| CUGUGCUACACAUCGUAUGUACCGAAUCGGGGAAAAAAAGGGGAAAAAGGGGAAAAAGGGGAAAGUAUUAUGUUACGCCGUUCGGAUCUG | -0.179 |

Block 3
Target: RNA binding protein fox-1 homolog 2, RRM domain, GST-SBP tag (RBFOX2, Homo sapiens, UniProt O43251-10, residues 100-194)
Technique: RNA Bind-n-Seq
Molecule type: RNA
Medium: in vitro
Tested at: 365 nM
Setting: natural RNA segment, single round, ends assumed
Relative to: no-protein control
Direction: higher = stronger binding
Constant ends, left off below: GGGAGUUCUACAGUCCGACGAUC … UGGAAUUCUCGGGUGCCAA
Construct (chain): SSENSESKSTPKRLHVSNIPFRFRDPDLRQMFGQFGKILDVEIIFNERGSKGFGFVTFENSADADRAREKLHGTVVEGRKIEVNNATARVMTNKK
| Sequence | RBNS enrichment (R) |
| --- | --- |
| UGGAAUAAUGGGCCAAACAUCUGGUCUUGCAUUGAAAUAGCAUUUCUUUGGGAUUGUGAAUAGAAUGUAGCAAAACCAGAUUCCAGUGUACUAGUCAUGGAUCUUUCUCU | 0.25 |
| CUCAAGAAGACUGACCGGUACGGGACACUCGAGGCUUUGAAUGGGACACCCUAUUCUGCCUUUUUUGAUUUUUUUCCCCUGAAUUAUUCUUUUUUACAACCCUUGUCCUU | 0.7 |
| UAAUUCAAAAACACUAUUGAUAUUGAAUACCAGAUACCACUAUGUAGUAAGUCUUUUAGGAUGAUUUUAAUUUAGUCGUGCGUCAUUUUCUGAUUCUCAUCAUUGGGAGA | 0.466 |
| GGAGACAAGAUGUAGACCCAGACAGAAGAAAUCUGCUUCCCUACCAUGGCUAUUCCAGCACCCCAACCUGUAAUUGCCAAGUCCUCUAAGGUACUAAUUUGUAGCUGCUC | 0.672 |
| AUUGAGCUCUGUUGUAAAUACAUCGCACCAGAGGCCACUGUGACGCCGCUGUCUCCUCCUCUCCAUCCCGCCCAGCCAUGUGACACCGGCUCUUGUAGAGGGCAUCCCCA | 0.431 |
| AGUUGUUGAAGGUACCGCUUAAGCCAUUUUUUUCUUAACAUCGGUGGCUCAGUUAAGGAAUGAGAAGAUAGAGGGUCCUCCACUUUCAGCUCAUGCUUUUUUAUGUAGGA | 0.346 |
| CAAUACCCUUGUUAAUUGCCCGUUGGCAACUAACUUAAUCAUGUGCUUCCAACACACUAAAUAGGGAAAACUUACAGGGCAAUAUUUUUAACUUGUGGCAAGAGGGAGGC | 0.288 |
| CAGGACAUGGCAGGCUUCGCACCCUUUGUCAACCUACAGGUUGACUAACUUUCCUUGGGGUGGGAGCACAGCUGGACUGUGUAGCCCGGGCUUGACCCUGAGCCAUAGGG | 0.382 |
| CAAAAUCAUGAAAUAGAAUCAUUUCUAUAAAUUGCUUCUUUAAGUUUUCUCUAAAUUUUGCCUCUAGGAAAAAAUUAAAACUAUUCAAUGACAGCUAGCUGUCACUGGUG | 0.389 |
| CUUUUCAGAAAAUUGUCCCUUUCCGGAAGGCCUCCUAGUCUUAUUCGGUGAUGACUCUUGUUAUCUUUUGUGUCCUGUAACCUCAUCGGGAUUGUCUUUUUUUUUUUUAA | 0.636 |
| GCAUGGUGCACUGUCGUCUUUGCUCUUCAUUGAGGAUCUUCCACCCACCAUGGUCCCCUCAGUUGCACCUAGUGUCUAGCAAUGUGUCUUGCAAGAAAUUCCUAAUUCUU | 2.24 |
| CUGCAGGUGGUGCAUCAUCGUAUACACUAAGUGACAUUUCUAUCACAAUCAUUUUAUGGAAGAUGUGUGAUAAUCUGUUUUUACUGGUAUUAAUAAACACAUACAAUGAA | 0.621 |

Block 4
Target: Histone acetyltransferase KAT6A, winged helix 1, GST fusion (KAT6A, Homo sapiens, UniProt Q92794, residues 1-85)
Technique: protein binding microarray
Molecule type: double-stranded DNA, one strand shown
Medium: in vitro
Tested at: not given
Setting: 8-mer, flanks averaged, mean of 2 arrays, mostly near background
Relative to: not given
Direction: higher = stronger binding
Construct (chain): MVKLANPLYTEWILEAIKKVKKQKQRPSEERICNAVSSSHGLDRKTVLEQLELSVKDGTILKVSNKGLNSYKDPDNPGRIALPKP
| Sequence | E-score |
| --- | --- |
| AGACGTAA | -0.212 |
| ATTGTGAG | -0.197 |
| AAAGGGCG | 0.0576 |
| CTTTATAA | -0.162 |
| ATAACAGG | -0.196 |
| ATTTCTTC | -0.223 |
| ACCAGATA | -0.153 |
| AACCCAAC | -0.387 |
| AAGCACGA | -0.23 |
| GAGTGTAC | 0.00654 |
| AGCCATTG | -0.266 |
| GATTAGTA | 0.00741 |
| TAGCCCAA | -0.0865 |
| ATATCGTC | -0.221 |
| AGGAACCC | -0.126 |
| GAATTCGA | -0.033 |
| CTAGCTGC | 0.0842 |
| GATAGCAA | -0.286 |
| GCATGTGA | 0.0593 |
| AGCACGCA | -0.00876 |
| ACGCACAA | -0.0704 |
| TGAATGCA | -0.257 |
| AGCGTCGG | 0.442 |
| CTGTGCTA | -0.0347 |
| CATTCCAC | 0.0688 |

Block 5
Target: Max-binding protein MNT, bHLH-zipper, MAX partner unstated (MNT, Homo sapiens, UniProt Q99583, residues 220-300)
Technique: protein-binding microarray
Molecule type: double-stranded DNA, one strand shown
Medium: in vitro
Tested at: not given
Setting: k-mer, scored over probes, only values ≥0.25
Direction: higher = stronger binding
Residues (chain): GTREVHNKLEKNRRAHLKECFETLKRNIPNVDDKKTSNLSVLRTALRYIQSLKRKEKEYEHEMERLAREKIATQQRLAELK
| Sequence | E-score |
| --- | --- |
| AGCGCACG | 0.392 |
| GCGCACGA | 0.367 |
| CGTGTAGC | 0.334 |
| ACGACCAC | 0.266 |
| ATGTGACA | 0.344 |
| AACCACGA | 0.27 |
| CACGAGAC | 0.385 |
| ATGCGTGC | 0.396 |
| GCCATGCA | 0.351 |
| CCCCGGCA | 0.291 |
| GGCGTGCA | 0.378 |
| AACGCATG | 0.448 |
| GAGCACGA | 0.305 |
| CATGCACG | 0.414 |
| AGGCACAT | 0.35 |
| CACGCAGC | 0.319 |
| GCGTGTGA | 0.327 |
| CATGTGTC | 0.46 |
| CGTGAACA | 0.289 |
| ACATCGTG | 0.341 |

Excerpt of the above (block 1):
| Modification | mean fluorescence intensity [a.u.] |
| --- | --- |
| 2'F-ANA at 1 7 8 12 13 14 15 | 92.8 |
| 2'F-ANA at 1 2 3 5 9 11 12 13 14 | 46.7 |
| 2'F-ANA at 1 4 7 9 10 11 12 13 | 54.1 |
| 2'F-ANA at 1 4 7 8 11 15 | 129 |
| 2'F-ANA at 1 2 6 7 8 11 15 | 145 |
| 2'F-ANA at 1 2 3 5 8 9 10 12 13 | 50.6 |
| 2'F-ANA at 3 5 6 7 13 14 | 49.7 |
| 2'F-ANA at 5 8 9 11 12 13 14 15 | 58.8 |
| 2'F-ANA at 1 2 3 6 9 12 13 15 | 330 |
| 2'F-ANA at 1 5 7 9 10 11 13 | 105 |
| 2'F-ANA at 1 2 3 4 5 9 12 13 | 73.5 |
| 2'F-ANA at 1 2 3 6 8 10 15 | 65.7 |
| 2'F-ANA at 1 2 4 5 6 10 11 12 14 15 | 283 |
| 2'F-ANA at 1 4 5 8 11 12 14 15 | 47.5 |
